# Assay results collected from several papers.
# Each numbered part is a random draw from the data of one study; scales do not carry over between parts. Positions count from the first letter of the parent shown.

# Sample 1 — method: DHFR PCA, deep sequencing; medium: yeast; together with: (+)-ABA 0 µM; relative to: wild-type fitted maximum; direction: higher = stronger binding
# Target: ABI1, truncated, D143A, DHFR fusion (Arabidopsis thaliana)
# Setting: methotrexate growth selection, single substitutions
# Starting sequence: PYL1, truncated, DHFR fusion (Arabidopsis thaliana); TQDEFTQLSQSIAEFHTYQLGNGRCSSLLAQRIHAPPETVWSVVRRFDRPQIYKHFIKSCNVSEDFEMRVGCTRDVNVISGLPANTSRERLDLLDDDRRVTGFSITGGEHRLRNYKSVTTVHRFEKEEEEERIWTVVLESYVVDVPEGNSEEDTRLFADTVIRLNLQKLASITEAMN; partner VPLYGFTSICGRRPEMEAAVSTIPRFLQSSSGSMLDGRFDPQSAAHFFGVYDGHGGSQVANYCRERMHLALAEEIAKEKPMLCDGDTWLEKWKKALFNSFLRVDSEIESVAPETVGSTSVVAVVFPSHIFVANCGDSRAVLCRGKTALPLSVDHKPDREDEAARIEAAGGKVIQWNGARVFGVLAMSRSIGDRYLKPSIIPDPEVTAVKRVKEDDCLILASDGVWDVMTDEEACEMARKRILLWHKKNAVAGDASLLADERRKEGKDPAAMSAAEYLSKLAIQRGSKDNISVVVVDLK
Substitution,relative binding score [%]
E151Y,2.38
G108F,-6.94
V143S,-5.22
S150L,4.94
V62H,-4.57
I12S,-1.89
D75N,22.3
V100M,8.13
D97Q,26.4
R99A,-4.45
E67L,1.38
E130S,30.6
R98I,-0.44
R46Y,4.22
T135I,-0.248

# Sample 2 — method: RNAcompete; molecule type: RNA; medium: in vitro; concentration: 20 nM; setting: 7-mer, probes averaged, single round; relative to: mean of 7-mers; direction: higher = stronger binding
# Target: PABPC1L2, full length, GST fusion (mouse, UniProt A0ABA7IW68)
# Construct (chain): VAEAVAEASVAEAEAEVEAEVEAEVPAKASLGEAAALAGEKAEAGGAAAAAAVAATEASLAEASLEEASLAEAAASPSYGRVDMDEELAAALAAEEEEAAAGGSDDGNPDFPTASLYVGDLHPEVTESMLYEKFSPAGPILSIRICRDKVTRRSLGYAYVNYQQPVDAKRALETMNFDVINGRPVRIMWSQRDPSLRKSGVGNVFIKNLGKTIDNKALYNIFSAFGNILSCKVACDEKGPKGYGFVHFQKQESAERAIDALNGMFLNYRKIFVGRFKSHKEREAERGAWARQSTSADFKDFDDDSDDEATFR
Strand,7-mer Z-score
UCCGUCC,-0.505
GGGGAAU,0.256
CGACCUA,-0.0047
AACCGCA,0.0678
AAGUCAG,0.184
GUAAUAU,-0.141
AAUUAGU,0.106
ACGUAGG,0.046
CACUAAA,1.17
AUAUGAU,0.0134
CGCGGUU,-0.215

# Sample 3 — method: protein-binding microarray; molecule type: double-stranded DNA, one strand shown; medium: in vitro; concentration: 250 nM; setting: 60-bp whole probe; together with: salmon DNA 0.4 mg/ml; relative to: random background probes; direction: higher = stronger binding; constant ends, left off below: GCCTAGCAC … GTCTTGATTCGCTTGACGCTGCTG
# Target: Interferon regulatory factor 7, full length, phosphomimetic (IRF7, Homo sapiens, UniProt Q92985, residues 1-503, S101K/S471D/S472D/S475D/S476D/S477D/S483D/S484D/S487D)
# UniProt Q92985, sequence (whole entry, unmodified, looked up): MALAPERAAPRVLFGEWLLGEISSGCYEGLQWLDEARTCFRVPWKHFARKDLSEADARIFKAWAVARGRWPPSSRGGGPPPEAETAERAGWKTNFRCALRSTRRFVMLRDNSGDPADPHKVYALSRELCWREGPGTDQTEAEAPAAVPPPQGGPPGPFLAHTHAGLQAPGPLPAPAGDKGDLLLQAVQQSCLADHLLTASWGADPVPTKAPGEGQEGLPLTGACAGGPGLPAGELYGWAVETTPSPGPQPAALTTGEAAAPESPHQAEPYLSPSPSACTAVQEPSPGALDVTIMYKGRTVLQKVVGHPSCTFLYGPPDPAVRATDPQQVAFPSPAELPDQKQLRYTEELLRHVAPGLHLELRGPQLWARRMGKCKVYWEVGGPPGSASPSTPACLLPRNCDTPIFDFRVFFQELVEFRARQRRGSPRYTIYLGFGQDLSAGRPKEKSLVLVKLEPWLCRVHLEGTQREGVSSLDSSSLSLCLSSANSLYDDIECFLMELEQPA
Strand,log fluorescence [z-score]
GACGATTTCAGTTCCGAAACGTGCTAG,0.865
TCAAAAAATGGAAATCTAACTGTGCTA,0.182
TCAAGTTTTCCTTCATGACTGTGCTAG,1.74
GACGGTTTCGACTTTCGGGACGTGCTA,10.9
TCATGTCAACTTTCTCTGACTGTGCTA,0.233
TTCGGTATCGACTTTCGGTTAGTGCTA,3.12
TGCTGTCTCAGAGTCCTCTGGTGCTAG,-0.395
CATATATTCACTATAGTGTGGTGCTAG,1.25
GACCGACTGCTACTGCTGACGTGCTAG,-0.786
TCATTTTTTTTTTTTTCACTGTGCTAG,0.94
AACAGTTCATGTTTTGGAAAGTGCTAG,0.714
TTAGGACTGGACTATCGGTTCGTGCTA,-0.16

# Further values, each from its own experiment — organism: Saccharomyces cerevisiae; effect on: peptide binding; method: yeast competitive growth sequencing; molecule type: peptide; strain: cyclin F-Cln2 fusion; concentration: concentration not given; setting: library 2, Cln2-subtracted; direction: direction not given
Molecule,binding score
PSSMRKICTYFHR,1.89
PPVIIKYIIINRF,1.25

# A few entries again (sample 1):
Substitution,relative binding score [%]
E151Y,2.38
G108F,-6.94
V143S,-5.22
